Measured values from different studies.
Numbers after ± are the reported error.
DNA dC->dU-editing enzyme APOBEC-3B C-terminal domain: DNA dC->dU-editing enzyme APOBEC-3B, C-terminal domain (Homo sapiens, UniProt Q9UH17)
Sequence of UniProt Q9UH17 (whole entry, looked up): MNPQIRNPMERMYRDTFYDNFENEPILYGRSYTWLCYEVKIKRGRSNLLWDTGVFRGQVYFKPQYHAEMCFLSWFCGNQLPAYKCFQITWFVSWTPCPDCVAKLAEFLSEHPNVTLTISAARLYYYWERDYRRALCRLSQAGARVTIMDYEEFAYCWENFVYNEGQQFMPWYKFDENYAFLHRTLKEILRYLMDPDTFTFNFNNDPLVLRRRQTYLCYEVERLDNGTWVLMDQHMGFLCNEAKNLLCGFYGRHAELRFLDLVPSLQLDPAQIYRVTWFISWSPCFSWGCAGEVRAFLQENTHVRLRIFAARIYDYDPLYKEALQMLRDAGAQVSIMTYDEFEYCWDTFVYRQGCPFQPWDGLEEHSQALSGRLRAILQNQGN
ADRB2: Beta-2 adrenergic receptor (ADRB2, Homo sapiens, UniProt P07550)
Sequence of UniProt P07550 (whole entry, unmodified, looked up): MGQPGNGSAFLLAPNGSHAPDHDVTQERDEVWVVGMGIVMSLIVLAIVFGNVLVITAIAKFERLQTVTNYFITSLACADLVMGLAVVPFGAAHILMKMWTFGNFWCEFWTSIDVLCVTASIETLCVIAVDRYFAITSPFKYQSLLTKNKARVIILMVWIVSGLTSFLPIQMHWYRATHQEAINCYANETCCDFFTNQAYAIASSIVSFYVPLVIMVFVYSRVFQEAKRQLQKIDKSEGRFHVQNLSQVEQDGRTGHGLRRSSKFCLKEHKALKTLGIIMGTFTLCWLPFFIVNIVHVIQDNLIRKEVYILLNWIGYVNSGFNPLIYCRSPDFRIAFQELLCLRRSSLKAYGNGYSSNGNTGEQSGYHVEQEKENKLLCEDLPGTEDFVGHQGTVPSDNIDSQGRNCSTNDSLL
NTSR1: Neurotensin receptor type 1 (NTSR1, Homo sapiens, UniProt P30989)
Sequence of UniProt P30989 (whole entry, looked up): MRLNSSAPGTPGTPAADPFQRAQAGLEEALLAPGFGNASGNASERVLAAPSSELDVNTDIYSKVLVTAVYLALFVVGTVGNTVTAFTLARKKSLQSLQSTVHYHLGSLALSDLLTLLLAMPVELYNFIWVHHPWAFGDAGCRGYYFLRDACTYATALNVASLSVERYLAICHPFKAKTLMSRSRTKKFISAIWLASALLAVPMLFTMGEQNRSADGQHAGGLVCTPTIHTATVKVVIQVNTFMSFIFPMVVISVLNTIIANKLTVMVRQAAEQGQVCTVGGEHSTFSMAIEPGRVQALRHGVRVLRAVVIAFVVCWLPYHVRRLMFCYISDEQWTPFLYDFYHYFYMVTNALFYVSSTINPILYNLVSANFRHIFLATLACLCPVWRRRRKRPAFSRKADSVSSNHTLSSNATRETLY
PIK3CD: Phosphatidylinositol 4,5-bisphosphate 3-kinase catalytic subunit delta isoform (PIK3CD, Homo sapiens, UniProt O00329)
Sequence of UniProt O00329 (whole entry, looked up): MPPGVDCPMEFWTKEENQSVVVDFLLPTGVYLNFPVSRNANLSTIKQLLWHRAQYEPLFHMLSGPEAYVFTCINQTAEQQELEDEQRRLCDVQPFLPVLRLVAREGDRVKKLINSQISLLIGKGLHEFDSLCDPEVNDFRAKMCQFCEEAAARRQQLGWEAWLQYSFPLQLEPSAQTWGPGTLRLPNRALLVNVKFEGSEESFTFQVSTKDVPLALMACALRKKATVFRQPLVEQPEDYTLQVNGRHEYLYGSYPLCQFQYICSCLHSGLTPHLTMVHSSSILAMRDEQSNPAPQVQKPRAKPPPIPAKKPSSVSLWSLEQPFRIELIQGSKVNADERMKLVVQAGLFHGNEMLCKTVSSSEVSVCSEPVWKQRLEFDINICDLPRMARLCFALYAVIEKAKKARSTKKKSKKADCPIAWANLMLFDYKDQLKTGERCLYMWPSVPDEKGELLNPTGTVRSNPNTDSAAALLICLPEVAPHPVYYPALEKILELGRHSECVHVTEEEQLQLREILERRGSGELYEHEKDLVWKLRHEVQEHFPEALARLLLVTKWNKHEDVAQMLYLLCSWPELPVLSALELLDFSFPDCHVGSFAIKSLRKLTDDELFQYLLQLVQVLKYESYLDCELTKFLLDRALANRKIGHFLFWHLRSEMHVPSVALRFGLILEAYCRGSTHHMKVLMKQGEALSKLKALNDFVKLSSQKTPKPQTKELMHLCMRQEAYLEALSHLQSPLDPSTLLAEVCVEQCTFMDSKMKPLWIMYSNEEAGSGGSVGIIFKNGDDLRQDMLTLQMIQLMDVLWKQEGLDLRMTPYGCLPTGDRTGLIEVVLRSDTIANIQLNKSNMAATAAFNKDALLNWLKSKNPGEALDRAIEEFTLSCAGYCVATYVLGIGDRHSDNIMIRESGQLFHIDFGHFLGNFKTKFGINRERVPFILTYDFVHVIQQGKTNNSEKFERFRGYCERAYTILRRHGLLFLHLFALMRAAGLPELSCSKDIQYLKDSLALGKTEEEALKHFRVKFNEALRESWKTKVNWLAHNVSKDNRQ
JAK1: Tyrosine-protein kinase JAK1 (JAK1, Homo sapiens, UniProt P23458)
Sequence of UniProt P23458 (whole entry, looked up): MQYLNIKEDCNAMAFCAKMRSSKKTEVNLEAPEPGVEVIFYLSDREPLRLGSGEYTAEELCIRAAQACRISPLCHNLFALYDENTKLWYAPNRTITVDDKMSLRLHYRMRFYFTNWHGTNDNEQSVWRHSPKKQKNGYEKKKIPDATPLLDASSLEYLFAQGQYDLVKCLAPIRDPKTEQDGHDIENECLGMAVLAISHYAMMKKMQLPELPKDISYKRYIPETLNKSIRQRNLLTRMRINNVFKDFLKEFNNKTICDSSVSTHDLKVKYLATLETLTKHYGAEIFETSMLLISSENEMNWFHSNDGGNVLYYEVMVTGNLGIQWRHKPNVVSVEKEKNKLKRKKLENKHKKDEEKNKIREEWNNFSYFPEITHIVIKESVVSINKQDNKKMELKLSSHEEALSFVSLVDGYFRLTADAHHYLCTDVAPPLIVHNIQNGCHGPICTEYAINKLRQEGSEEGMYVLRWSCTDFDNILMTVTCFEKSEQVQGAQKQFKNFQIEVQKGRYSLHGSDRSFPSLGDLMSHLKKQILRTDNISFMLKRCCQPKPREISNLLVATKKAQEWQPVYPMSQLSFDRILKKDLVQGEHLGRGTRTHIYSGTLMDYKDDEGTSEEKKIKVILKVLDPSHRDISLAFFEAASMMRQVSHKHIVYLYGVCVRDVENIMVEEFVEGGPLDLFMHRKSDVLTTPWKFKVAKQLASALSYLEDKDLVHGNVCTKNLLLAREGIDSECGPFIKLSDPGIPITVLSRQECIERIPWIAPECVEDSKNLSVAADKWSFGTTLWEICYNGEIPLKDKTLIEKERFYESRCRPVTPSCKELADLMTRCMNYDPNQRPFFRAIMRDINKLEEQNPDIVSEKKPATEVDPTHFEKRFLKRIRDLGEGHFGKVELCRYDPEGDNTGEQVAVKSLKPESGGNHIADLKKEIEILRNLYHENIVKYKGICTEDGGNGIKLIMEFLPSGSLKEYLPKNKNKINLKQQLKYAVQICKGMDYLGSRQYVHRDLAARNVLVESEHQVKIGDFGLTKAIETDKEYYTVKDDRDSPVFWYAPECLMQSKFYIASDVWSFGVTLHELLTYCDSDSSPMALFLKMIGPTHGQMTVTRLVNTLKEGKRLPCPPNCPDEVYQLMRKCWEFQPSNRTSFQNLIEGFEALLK
TDP1: Tyrosyl-DNA phosphodiesterase 1 (TDP1, Homo sapiens, UniProt Q9NUW8)
ppa: Inorganic pyrophosphatase (ppa, Escherichia coli, UniProt P0A7A9)
Sequence of UniProt P0A7A9 (whole entry, looked up): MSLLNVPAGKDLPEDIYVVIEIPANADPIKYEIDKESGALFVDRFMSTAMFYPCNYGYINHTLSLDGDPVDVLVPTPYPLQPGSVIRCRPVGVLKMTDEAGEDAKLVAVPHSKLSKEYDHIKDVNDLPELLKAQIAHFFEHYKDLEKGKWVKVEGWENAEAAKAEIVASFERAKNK
Gria1: Glutamate receptor 1 (Gria1, Rattus norvegicus, UniProt P19490)
Sequence of UniProt P19490 (whole entry, looked up): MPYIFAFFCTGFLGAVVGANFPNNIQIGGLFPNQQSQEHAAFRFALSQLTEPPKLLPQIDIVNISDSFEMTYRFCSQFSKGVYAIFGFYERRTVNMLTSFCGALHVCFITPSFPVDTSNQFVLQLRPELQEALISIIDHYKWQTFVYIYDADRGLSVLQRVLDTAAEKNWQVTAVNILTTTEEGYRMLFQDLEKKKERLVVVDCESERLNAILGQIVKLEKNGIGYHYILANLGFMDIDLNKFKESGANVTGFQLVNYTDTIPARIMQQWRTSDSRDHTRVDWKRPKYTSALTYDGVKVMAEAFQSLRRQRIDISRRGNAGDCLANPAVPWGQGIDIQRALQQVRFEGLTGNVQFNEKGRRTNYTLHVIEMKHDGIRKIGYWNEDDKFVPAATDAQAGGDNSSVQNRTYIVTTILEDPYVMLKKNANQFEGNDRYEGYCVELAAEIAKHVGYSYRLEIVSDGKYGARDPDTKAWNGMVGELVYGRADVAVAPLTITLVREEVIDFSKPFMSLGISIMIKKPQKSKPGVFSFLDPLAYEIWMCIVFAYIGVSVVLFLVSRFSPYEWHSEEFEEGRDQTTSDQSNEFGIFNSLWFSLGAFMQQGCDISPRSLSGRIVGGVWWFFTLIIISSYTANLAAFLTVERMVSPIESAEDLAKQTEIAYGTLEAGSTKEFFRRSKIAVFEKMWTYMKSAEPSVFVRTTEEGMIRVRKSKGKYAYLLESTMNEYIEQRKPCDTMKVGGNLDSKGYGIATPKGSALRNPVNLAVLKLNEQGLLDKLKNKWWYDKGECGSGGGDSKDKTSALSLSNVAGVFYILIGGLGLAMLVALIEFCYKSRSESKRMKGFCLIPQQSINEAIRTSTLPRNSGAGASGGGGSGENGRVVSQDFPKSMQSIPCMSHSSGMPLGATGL
Uncharacterized protein: Uncharacterized protein (Trypanosoma brucei brucei, UniProt Q386Q8)
CHRM5: Muscarinic acetylcholine receptor M5 (CHRM5, Homo sapiens, UniProt P08912)
NNMT: Nicotinamide N-methyltransferase (NNMT, Homo sapiens, UniProt P40261)
Sequence of UniProt P40261 (whole entry, looked up): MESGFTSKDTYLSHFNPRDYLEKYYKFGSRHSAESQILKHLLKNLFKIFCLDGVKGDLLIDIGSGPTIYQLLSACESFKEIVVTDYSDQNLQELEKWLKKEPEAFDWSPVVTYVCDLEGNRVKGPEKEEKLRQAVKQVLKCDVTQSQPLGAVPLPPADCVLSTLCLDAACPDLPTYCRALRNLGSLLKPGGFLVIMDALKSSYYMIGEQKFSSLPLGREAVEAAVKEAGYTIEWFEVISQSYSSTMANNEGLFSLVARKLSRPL
glpG: Rhomboid protease GlpG (glpG, Escherichia coli, UniProt P09391)
SLC7A5: Large neutral amino acids transporter small subunit 1 (SLC7A5, Homo sapiens, UniProt Q01650)
OfChi-h: Chitinase (OfChi-h, Ostrinia furnacalis, UniProt Q4AE59)
Sequence of UniProt P20618 (whole entry, looked up): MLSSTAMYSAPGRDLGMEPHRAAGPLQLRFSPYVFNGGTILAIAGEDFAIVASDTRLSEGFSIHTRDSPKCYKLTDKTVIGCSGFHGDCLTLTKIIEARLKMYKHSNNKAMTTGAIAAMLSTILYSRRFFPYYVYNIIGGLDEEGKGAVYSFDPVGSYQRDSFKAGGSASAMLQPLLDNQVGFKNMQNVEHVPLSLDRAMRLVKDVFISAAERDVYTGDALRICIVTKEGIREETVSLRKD

O=C(O)c1ccc(-c2ccc(O)cc2)c2c1C=C(c1ccc(O)cc1)OC2(c1ccc(O)cc1)c1ccc(O)cc1 — IC50 (PDE4D (Homo sapiens, UniProt Q08499); enzyme activity, inhibitor): 0.049 µM
CC[C@H](C)[C@H](NC(=O)[C@H](CCCCN)NC(=O)[C@H](CCCCN)NC(=O)[C@H](CC(=O)O)NC(=O)[C@@H](N)CCC(=O)O)C(=O)N[C@H](C(=O)N[C@H](C(=O)N[C@@H](CCSC)C(=O)N1CCC[C@H]1C(=O)N[C@@H](CS)C(=O)N[C@@H](CCCCN)C(=O)N[C@@H](CS)C(=O)N[C@@H](C)C(=O)N1CCC[C@H]1C(=O)N[C@@H](CO)C(=O)N[C@@H](CCCNC(=N)N)C(=O)O)[C@@H](C)CC)C(C)C — IC50 (MAD2L2 (Homo sapiens, UniProt Q9UI95, R124A); REV7 complex disruption, inhibitor, fluorescence polarization; together with: FAM-RBM1 peptide): 32.8 µM
CCC1(O)CCCN(C(=O)c2ccc(-c3ccccc3C(F)(F)F)cc2)C1 (stereo not shown) — IC50 (DNA dC->dU-editing enzyme APOBEC-3B C-terminal domain; deaminase activity, inhibitor, UDG-coupled deamination): 383 ± 17 µM
Clc1ccc(Nc2nc(NC3CCCCC3)c3ccccc3n2)cc1 — IC50 (ADRB2; cAMP production, antagonist, GloSensor; together with: isoproterenol 1 µM): > 50 µM
COc1ccccc1C1CCN(c2nc(C3CC3)nc3ccc(N4CCC(N(C)C)C4)cc23)CC1 (stereo not shown) — IC50 (NTSR1; G protein activation, antagonist): 13.5 µM
Cc1nc(N(C)c2ccc3c(c2)/C(=C/c2cn(C)c4ccccc24)C(=O)N3C)c2ccccc2n1 — IC50 (PIK3CD; enzyme activity, inhibitor, ADP detection): 0.227 µM
O=C1NC(=O)[C@](CNC(=O)[C@@H](Cc2ccc(C(F)(F)F)cc2)C2CC2)(C2CC2)N1 — IC50 (A disintegrin and metalloproteinase with thrombospondin motifs 7 (Homo sapiens, UniProt Q9UKP4); enzyme activity, inhibitor, FRET): 0.055 µM
CC(C)(C)NC(=O)CC(NC(=O)CCc1ccccc1)C(=O)NCCNC(=O)c1cccc2ccccc12 (stereo not shown) — IC50 (Proteasome component C5/PSMB5 (Homo sapiens, UniProt P20618+P28074); enzyme activity, inhibitor; constitutive proteasome β5c): 1.22 µM
CCC(CC)C(=O)/C=C/C(=O)N1CCc2cc(Nc3ncc(C)c(-c4cnn(C(C)C)c4)n3)ccc2C1 — IC50 (JAK1; enzyme activity, inhibitor, ADP detection): 0.00512 µM
Fc1ccc(Nc2nc(NC3CCCCC3)c3cc(C(F)(F)F)ccc3n2)cc1F — IC50 (ADRB2 (Homo sapiens, UniProt P07550, N148A); β-arrestin2 recruitment, antagonist, BRET; HEK293; mutant N148A, together with: isoprenaline 1 µM): 0.2 µM
COc1cccc(F)c1C=NOCc1ccc(-c2nc3cc(-c4ccccc4)ccn3c2Nc2ccc(C(=O)O)cc2)cc1 (mixture of isomers) — inhibition (TDP1; enzyme activity, inhibitor; 100 µM, unpurified compound): 67.4%
C[N+](C)(CCCN1c2ccccc2CCc2ccc(Cl)cc21)CC(=O)c1ccccc1 — IC50 (ppa; inhibitor, counter-screen, coupling enzyme alone): 52.5 µM
O=C(O)Cc1cc2c(cc1C(=O)c1ccccc1Cl)OCO2 — IC50 (Gria1; glutamate-evoked current, inhibitor, whole-cell patch clamp; HEK293T, homomeric receptor): 4.47 µM
COc1ccc(OC)c(C2=Nn3c(nnc3-c3ccc(C)cc3)SC2)c1 — IC50 (Uncharacterized protein; inhibitor, coupled colorimetric; Trypanosoma brucei): 252 µM
COC(=O)Cc1cc2c(cc1C(=O)c1cccc(I)c1)OCO2 — IC50 (Gria1; glutamate-evoked current, inhibitor, whole-cell patch clamp; HEK293T, homomeric receptor): 5.89 µM
O=C(CCNC(=O)CNC(=O)CC(c1ccccc1)(c1ccccc1)c1ccccc1)NC[C@H]1CCCN(C(=O)c2ccc(F)cc2)C1 — IC50 (CHRM5; ligand displacement, radioligand; cell membranes): > 30 µM
COc1ccccc1C1CCN(c2nc(C3CC3)nc3ccc(N(C)CCO)cc23)CC1 — IC50 (NTSR1; G protein activation, antagonist): 1.14 µM
CNCc1ccc2c(c1)N(C(=O)OCCC(F)(F)F)[C@H](CNC(=N)N)[C@H]2NC(=O)C(=O)Nc1ccc(Cl)c(F)c1 — IC50 (env (Human immunodeficiency virus 1, UniProt O40222); HIV-1 infection; Cf2Th-CD4/CCR5 cells; 48 h): 0.58 µM
O=C(NC1CCC1)c1ccc2nc(-c3ccccc3)cn2c1 — IC50 (Protein AF-9, YEATS domain (Homo sapiens, UniProt P42568); YEATS domain binding, inhibitor, HTRF): 0.41 µM
O=C(Nc1ccc(OC(F)(F)F)cc1)N1CCC(Cc2cccc(Oc3ccc(C(F)(F)F)cn3)c2)CC1 — IC50 (MGLL (Homo sapiens, UniProt Q99685); enzyme activity, inhibitor, absorbance): > 10 µM
CC(=O)C1=C(C)Nc2ccccc2S1 — IC50 (Uncharacterized protein; enzyme activity, inhibitor, coupled colorimetric; together with: E. coli pyrophosphatase coupling): 59 µM
O=C1Nc2ccccc2/C1=N/c1ccc(Cl)cc1Br — IC50 (PIK3CD; enzyme activity, inhibitor, ADP detection): 0.0618 µM
COc1ccnc(C)c1C — IC50 (NNMT; enzyme activity, inhibitor): 7.94 µM
O=C(O)Cc1cc2c(cc1C(=O)c1ccccc1Br)OCO2 — IC50 (Gria1; glutamate-evoked current, inhibitor, whole-cell patch clamp; HEK293T, homomeric receptor): 4.68 µM
CC(=O)C1=C(c2ccc(F)cc2)N(C(C)=O)n2cnnc2S1 — IC50 (ppa; inhibitor, counter-screen, coupling enzyme alone): 45.4 µM
Fc1ccc(Nc2nc(NC3CCCCC3)c3ccccc3n2)cc1 — IC50 (ADRB2; β-arrestin recruitment, antagonist): 0.23 µM
COc1cccc(OC)c1-c1cc(C(=O)NC2(C(=O)O)C3CC4CC(C3)CC2C4)nn1-c1ccc(C(=O)N(C)CCCN(C)CCCN(C)C(=O)[C@H](CCCCNC(=O)[C@H](CC(C)C)NC(=O)C2OC2C(=O)O)NC(=O)CN2CCN(CC(=O)[O-])CCN(CC(=O)[O-])CCN(CC(=O)[O-])CC2)cc1C(C)C.[Lu+3] (mixture of isomers) — IC50 (NTSR1; ligand displacement, radioligand): 0.014 µM
O=C(CCNC(=O)CNC(=O)CC(c1ccccc1)(c1ccccc1)c1ccccc1)NCC1CCN(C(=O)c2ccc(F)cc2)CC1 — IC50 (CHRM5; ligand displacement, radioligand; cell membranes): > 30 µM
Oc1cc(O)c2c(c1)OC(c1ccc(O)c(O)c1)C(OC1(c3ccc(O)c(O)c3)Oc3cc(O)cc(O)c3C(O)C1O)C2 (stereo not shown) — IC50 (CHRM3 (Homo sapiens, UniProt P20309); DMR desensitization; HT-29; together with: acetylcholine): 57 µM
O=C1C(Nc2ccc(Cl)cc2)c2ccccc2N1Cc1ccccc1 (stereo not shown) — IC50 (PIK3CD; enzyme activity, inhibitor, ADP detection): 0.0348 µM
Cc1ccc2c(c1C)NC(=O)C2(O)CC(=O)c1ccc2c(c1)OCO2 (stereo not shown) — IC50 (ppa; enzyme activity, inhibitor): > 100 µM
O=C1CC(c2ccccc2)N1S(=O)(=O)c1cccc(-c2ccccc2)c1 (stereo not shown) — IC50 (glpG; substrate cleavage, inhibitor; NR698): 9.5 µM
CNc1cc(Cl)c(C(N)=O)cn1 — IC50 (NNMT; enzyme activity, inhibitor): 1.58 µM
Cc1cc(Br)c2c(c1)C(O)(CC(=O)c1ccc(F)cc1)C(=O)N2 (stereo not shown) — IC50 (ppa; enzyme activity, inhibitor): > 100 µM
N[C@@H](Cc1c[nH]c2ccc(OCc3cccc(-c4ccco4)c3)cc12)C(=O)O — IC50 (SLC7A5; transporter uptake, inhibitor, radiometric): 20.4 µM
Brc1cccc(Nc2nc(NC3CCCCC3)c3ccccc3n2)c1 — IC50 (ADRB2; cAMP production, antagonist, GloSensor; together with: isoproterenol 1 µM): > 50 µM
CC(C)c1ccc(/C=C/C(=O)c2ccc(Cl)cc2)cc1 — IC50 (MAOB (Homo sapiens, UniProt P27338); enzyme activity, inhibitor): 0.066 µM
Cc1ccc(N=C2CC(=O)c3sc(C)nc3C2=O)cc1 — IC50 (EHMT1 (Homo sapiens, UniProt Q9H9B1); enzyme activity, inhibitor): 4.7 µM
Cn1c(=O)c(-c2ccccc2Cl)cc2cnc(Nc3cccc(S(C)(=O)=O)c3)nc21 — IC50 (SRC (Homo sapiens, UniProt P12931); enzyme activity, inhibitor): 0.03 µM
CCC1(O)CCCN(C(=O)c2cccc(C#N)c2)C1 (stereo not shown) — IC50 (DNA dC->dU-editing enzyme APOBEC-3B C-terminal domain; deaminase activity, inhibitor, UDG-coupled deamination): 506 ± 25 µM
Cc1c(C)c(C)c(C[N+]2(C)CCN(CCCN3c4ccccc4Sc4ccc(Cl)cc43)CC2)c(C)c1C — IC50 (Uncharacterized protein; enzyme activity, inhibitor, coupled colorimetric; together with: E. coli pyrophosphatase coupling): 35.6 µM
CN(C)c1nc(NCc2ccc(-c3ccccc3)cc2)c(/N=N/c2ccc(Cl)cc2)c(N(C)C)n1 — IC50 (OfChi-h; enzyme activity, inhibitor, fluorescence): 0.12 µM
CC(C)(C)c1ccc(C2CC(=O)N2S(=O)(=O)c2cccc(Cl)c2)cc1 (stereo not shown) — IC50 (glpG; enzyme activity, inhibitor): 12 µM
Cn1c(/C=C/c2cn(C)c3ccccc23)nc2ccccc2c1=O — IC50 (Uncharacterized protein; enzyme activity, inhibitor, coupled colorimetric; together with: E. coli pyrophosphatase coupling): 74 µM
CN(C)c1nc(NCc2ccc(F)c(C(F)(F)F)c2)c(/N=N/c2ccc(Cl)cc2)c(N(C)C)n1 — IC50 (OfChi-h; enzyme activity, inhibitor, fluorescence): 0.37 µM
C[C@@H](O)[C@H](NC(=O)[C@@H]1CSSC[C@H](NC(=O)[C@@H](Cc2ccccc2)NC(=O)CN2CCN(CC(=O)O)CCN(CC(=O)O)CCN(CC(=O)O)CC2)C(=O)N[C@@H](Cc2ccc(O)cc2)C(=O)N[C@H](Cc2c[nH]c3ccccc23)C(=O)N[C@@H](CCCCN)C(=O)N[C@@H]([C@@H](C)O)C(=O)N1)C(=O)O — IC50 (Somatostatin receptor type 2 (Rattus norvegicus, UniProt P30680); ligand displacement): 0.00346 µM
Cc1nn(-c2cccc(N)c2)c(=O)c2cnc(Nc3ccc(N4CCNCC4)cc3)nc12 — IC50 (FGFR2 (Homo sapiens, UniProt P21802); enzyme activity, inhibitor): > 10 µM
O=c1cc(-c2ccc(O)cc2)oc2c([C@@H]3OC[C@H](O)[C@H](O)[C@H]3O)c(O)c([C@@H]3O[C@H](CO)[C@@H](O)[C@H](O)[C@H]3O)c(O)c12 — IC50 (CAMK2D (Homo sapiens, UniProt Q13557); binding, LanthaScreen Eu binding; 1 h): 3.53 µM
CC(C)(C)n1ncc2c(=O)n(Cc3cccc(F)c3)c(NCc3ccc(F)cn3)nc21 — IC50 (PDE7A (Homo sapiens, UniProt Q13946); enzyme activity, inhibitor): > 10 µM
CC[C@H]1CN(C(=O)NCC(F)(F)F)C[C@H]1Nc1c(C(F)(F)F)cnc2[nH]ccc12 — IC50 (JAK1; enzyme activity, inhibitor, ADP detection): 0.718 µM
O=c1cnnc(Nc2ccc(O)cc2)[nH]1 — IC50 (DNA dC->dU-editing enzyme APOBEC-3B (Homo sapiens, UniProt Q9UH17); enzyme activity, inhibitor, HPLC): 505 µM
N[C@@H](Cc1c[nH]c2ccc(OCc3cccc(-c4cccs4)c3)cc12)C(=O)O — IC50 (SLC7A5; transporter uptake, inhibitor, radiometric): 12.6 µM
COc1cccc2c(=O)c(CO)coc12 — IC50 (NNMT; enzyme activity, inhibitor): 3.98 µM
O=C(O)c1ccc(Nc2c(-c3ccc(CON=Cc4ccc(-n5cccn5)cc4)cc3)nc3cc(-c4ccccc4)ccn23)cc1 — inhibition (TDP1; enzyme activity, inhibitor; 100 µM, unpurified compound): 89.7%
COc1ccccc1C1CCN(c2nc(C3(F)CC3)nc3cc(Cl)c(N(C)CCO)cc23)CC1 — IC50 (NTSR1; G protein activation, antagonist, BRET): 5.56 µM

For quick reference, copied from above:
CC[C@H]1CN(C(=O)NCC(F)(F)F)C[C@H]1Nc1c(C(F)(F)F)cnc2[nH]ccc12 — IC50 (JAK1; enzyme activity, inhibitor, ADP detection): 0.718 µM
Cc1nc(N(C)c2ccc3c(c2)/C(=C/c2cn(C)c4ccccc24)C(=O)N3C)c2ccccc2n1 — IC50 (PIK3CD; enzyme activity, inhibitor, ADP detection): 0.227 µM
Cc1c(C)c(C)c(C[N+]2(C)CCN(CCCN3c4ccccc4Sc4ccc(Cl)cc43)CC2)c(C)c1C — IC50 (Uncharacterized protein; enzyme activity, inhibitor, coupled colorimetric; together with: E. coli pyrophosphatase coupling): 35.6 µM
O=C1CC(c2ccccc2)N1S(=O)(=O)c1cccc(-c2ccccc2)c1 (stereo not shown) — IC50 (glpG; substrate cleavage, inhibitor; NR698): 9.5 µM
O=C(O)c1ccc(Nc2c(-c3ccc(CON=Cc4ccc(-n5cccn5)cc4)cc3)nc3cc(-c4ccccc4)ccn23)cc1 — inhibition (TDP1; enzyme activity, inhibitor; 100 µM, unpurified compound): 89.7%
